Measurements pooled from the literature.
Compare with care: the assays were run in different laboratories. Numbers after ± are the reported error.

SMILES | target | assay | test system | conditions | how to read | measurement | value
CC[C@H](C)[C@H](NC(=O)[C@H](Cc1ccccc1)NC(=O)[C@@H](NC(=O)[C@@H](NC(=O)[C@H](CC(C)C)NC(=O)[C@H](CCCCN)NC(=O)[C@@H](N)CCCCN)[C@@H](C)CC)[C@@H](C)O)C(=O)N[C@@H](CC(C)C)C(=O)N[C@@H](CCCCN)C(=O)N[C@@H](CCCCN)C(=O)N[C@H](C(=O)N[C@@H](CCCNC(=N)N)C(=O)N[C@@H](CCC(=O)O)C(=O)N[C@@H](CCCCN)C(=O)N[C@@H](CCCCN)C(=O)N[C@@H](CCCCN)C(=O)N[C@@H](CCC(=O)O)C(=O)N[C@@H](CS)C(=O)N[C@@H](CC(C)C)C(=O)N[C@H](C(=O)O)C(C)C)[C@@H](C)O | voltage-gated sodium channel | resurgent sodium current, kinetic model fit | mouse CA3 neurons | 200 µM, membrane potential -10 mV | – | rate constant kOI | 70 s⁻¹
CCOCCNC(=O)N1CCC[C@H](c2n[nH]c(-c3ccccc3)n2)C1 | recombinant aromatase CYP19 | absorption spectroscopy | – | 100 µM, no androstenedione | – | Soret peak wavelength | 418 nm
O=C(c1ccc(F)cc1)N1CCCC(c2nc(-c3ccncc3)no2)C1 (stereo not drawn) | mGluR5 | calcium fluorescence, positive allosteric modulator | mGluR5-expressing cells | added: glutamate EC20 | – | EC50 | 1410 ± 216 nM
CCC(=O)Oc1ccc(Cl)cc1C(=O)Nc1ccc([N+](=O)[O-])cc1Cl | androgen receptor | Western blot | CWR22Rv1 | 1 µM, 16 h | – | AR protein level | inhibited
CCCCC/C=C/C(=O)CCc1ccc(O)c(OC)c1 | mAb 2-LD2 | antibody binding, indirect competitive ELISA | – | added: coating antigen hapten 3-OVA | – | IC50 | 3.26 ng/mL
C[C@]12CC[C@@H]3c4ccc(OCC(=O)N[C@@H](CCCCNC(=O)CN5CCN(CC(=O)[O-])CCN(CC(=O)[O-])CCN(CC(=O)[O-])CC5)C(=O)O)cc4CC[C@H]3[C@@H]1CCC2=O.[68Ga+3] | estrogen receptor | – | nude mice, MCF7 xenograft, uterus | dose not given, 2.5 h post-injection, added: estradiol 200 µg co-injected | reference: unblocked | uptake reduction by blocking | ~46%
CC[C@H](C)[C@H](NC(=O)[C@H](CC(C)C)NC(=O)[C@H](CCCCN)NC(=O)[C@@H](N)CCCCN)C(=O)N[C@H](C(=O)N[C@@H](Cc1ccccc1)C(=O)N[C@H](C(=O)N1CCC[C@H]1C(=O)N[C@@H](CCCCN)C(=O)N[C@@H](CCCCN)C(=O)N[C@H](C(=O)N[C@@H](CCCNC(=N)N)C(=O)N[C@@H](CCC(=O)O)C(=O)N[C@@H](CCCCN)C(=O)N[C@@H](CCCCN)C(=O)N[C@@H](CCCCN)C(=O)N[C@@H](CCC(=O)O)C(=O)N[C@@H](CS)C(=O)N[C@@H](CC(C)C)C(=O)N[C@H](C(=O)O)C(C)C)[C@@H](C)O)[C@@H](C)CC)[C@@H](C)O | voltage-gated sodium channel | resurgent sodium current, kinetic model fit | mouse CA3 neurons | 200 µM, membrane potential -10 mV | – | rate constant kIO | 21 s⁻¹
Cc1nc(C)c(C=[N+]([O-])C(C)(C)C)nc1C | mitochondrial complex I, rat | – | cerebellar granule neurons, rat | 30 µM, added: MPP+ | – | complex I activity increase | 27.2%
CC(/C=C/C(=O)NO)=C\[C@@H](C)C(=O)c1ccc(N(C)C)cc1 | PTPN1, PTPN12, PTPRA, LMWPTP, human | phosphatase activity | – | concentration not given | – | inhibition | inactive
Cc1sc2ncn(CC(=O)N3CCCC3)c(=O)c2c1-c1cccc(Br)c1 | NMDA receptor, mouse | single-channel current, outside-out patch | cortical neurons | concentration not given, holding -80 mV, added: Ca2+ 0.5 mM | – | unitary current amplitude 2 | -3.17 ± 0.26 pA
CC(C)C[C@H](NC(=O)[C@@H]1CCC(=O)N1)C(=O)N[C@H](C(=O)N[C@@H](Cc1ccccc1)C(=O)N[C@H](C(=O)N[C@@H](CO)C(=O)N[C@@H](CO)C(=O)N[C@@H](Cc1c[nH]c2ccccc12)C(=O)NCC(N)=O)[C@@H](C)O)[C@@H](C)O | AKHR Bombyx mori EGFP | agonist | HEK293 stable AKHR-EGFP | 10 nM, 37 °C | – | time to internalization onset | 5 min
Cc1cc(N)c2cc(NC(=O)C(=O)Nc3ccc4nc(C)cc(N)c4c3)ccc2n1 | factor Xa | anticoagulant neutralization, chromogenic | – | added: fondaparinux 0.2 IU/mL, human antithrombin III | – | IC50 | 11.9 ± 0.2 µM

Some of these lines once more:
SMILES | target | assay | test system | conditions | how to read | measurement | value
Cc1sc2ncn(CC(=O)N3CCCC3)c(=O)c2c1-c1cccc(Br)c1 | NMDA receptor, mouse | single-channel current, outside-out patch | cortical neurons | concentration not given, holding -80 mV, added: Ca2+ 0.5 mM | – | unitary current amplitude 2 | -3.17 ± 0.26 pA
CC(C)C[C@H](NC(=O)[C@@H]1CCC(=O)N1)C(=O)N[C@H](C(=O)N[C@@H](Cc1ccccc1)C(=O)N[C@H](C(=O)N[C@@H](CO)C(=O)N[C@@H](CO)C(=O)N[C@@H](Cc1c[nH]c2ccccc12)C(=O)NCC(N)=O)[C@@H](C)O)[C@@H](C)O | AKHR Bombyx mori EGFP | agonist | HEK293 stable AKHR-EGFP | 10 nM, 37 °C | – | time to internalization onset | 5 min
